Experimental data from different studies.
Protocols differ between the studies behind these lines. ± marks the error that the study gave. Values after ≈ are worked out from the molar mass of the structure shown.
BCHE: Cholinesterase (BCHE, Homo sapiens, UniProt P06276)
Sequence of UniProt P06276 (whole entry, looked up): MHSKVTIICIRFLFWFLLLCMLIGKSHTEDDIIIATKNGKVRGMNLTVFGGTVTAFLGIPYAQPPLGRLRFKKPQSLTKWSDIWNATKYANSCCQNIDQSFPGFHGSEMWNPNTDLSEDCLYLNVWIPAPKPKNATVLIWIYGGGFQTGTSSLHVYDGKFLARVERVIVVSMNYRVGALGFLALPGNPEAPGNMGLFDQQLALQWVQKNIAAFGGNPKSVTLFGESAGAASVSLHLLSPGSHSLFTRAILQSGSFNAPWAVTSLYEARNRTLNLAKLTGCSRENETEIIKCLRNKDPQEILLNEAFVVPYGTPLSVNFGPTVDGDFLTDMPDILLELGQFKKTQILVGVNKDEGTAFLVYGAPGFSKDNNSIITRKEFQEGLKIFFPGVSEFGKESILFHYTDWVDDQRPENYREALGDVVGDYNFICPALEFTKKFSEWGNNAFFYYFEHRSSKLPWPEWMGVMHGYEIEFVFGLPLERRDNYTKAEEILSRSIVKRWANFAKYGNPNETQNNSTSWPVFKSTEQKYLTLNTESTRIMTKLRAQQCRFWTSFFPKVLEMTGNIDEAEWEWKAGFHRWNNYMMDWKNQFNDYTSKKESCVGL

SMILES = CCCCOc1nc(N)c2c(n1)N(Cc1cccc(CN3CCCC3)c1)CC(=O)N2; system = human; conditions = oral, 2 mg; measurement = TEAE leading to discontinuation; result = 0%
SMILES = OCc1ncc2n1-c1ccc(Cl)cc1C(c1ccccc1F)=NC2; system = human, plasma; conditions = oral, 7.5 mg of midazolam, day 1, geometric mean, no amenamevir; measurement = Cmax; result = 15.7 ng/mL
SMILES = O=C(C1CCCCC1)N1CCN(S(=O)(=O)c2cccc3cnccc23)CC1; system = Swiss CD1 mouse liver microsomes; conditions = 5 µM, added: NADPH; measurement = CLint; result = > 1000 µL/min/mg
SMILES = Cc1ccc(-c2nc3ccc(C)cn3c2CC(=O)N(C)C)cc1; system = human, human liver microsomes 0.5 mg/mL; conditions = 5 µM, 24 h, pH 7.4; measurement = fu plasma over fu microsomes; result = 0.147
SMILES = O=C1c2c(O)c(=O)ccn2N([C@@H]2c3ccccc3SCc3c2ccc(F)c3F)[C@@H]2COCCN12; system = BALB/c mice, plasma; conditions = oral, 1.5 mg/kg baloxavir marboxil, 2 h; measurement = plasma concentration; result = 8.38 ng/mL
SMILES = CCCCCn1nc(C(=O)Nc2cccc3ccccc23)c2ccccc21; system = male human liver microsomes; conditions = 1 µM; measurement = hepatic clearance; result = 19.2 mL/min/kg
SMILES = CC[C@H](C)[C@H](NC(=O)[C@H](CC(C)C)NC(=O)[C@H](CO)NC(=O)[C@H](CC(C)C)NC(=O)[C@H](CC(C)C)NC(=O)[C@@H](N)CO)C(=O)N[C@@H](CCCNC(=N)N)C(=O)N[C@@H](CCCCN)C(=O)N[C@@H](CC(C)C)C(=O)N[C@H](C(=O)N[C@H](C(N)=O)[C@@H](C)O)[C@@H](C)CC; system = mouse red blood cells; measurement = minimal haemolytic concentration; result = 10 µM
SMILES = COc1ccc2c(c1)[C@]13CCCC[C@@H]1[C@H](C2)N(C)CC3; system = human; conditions = oral, dose not given; measurement = subjects with treatment-related TEAE; result = 17.9%
SMILES = Cc1ncc2n1-c1ccc(Cl)cc1C(c1ccccc1F)=NC2; system = healthy humans; conditions = oral, dose not given; measurement = contact dermatitis events; result = 0%
SMILES = N#Cc1c(Oc2cccc(OS(=O)(=O)CCCC(F)(F)F)c2)cccc1C(F)(F)F; system = mouse; conditions = oral, 5 mg/kg; how to read = relative to: brain Cmax over plasma Cmax; measurement = tissue/plasma ratio; result = ~2.1
SMILES = CCCCCCC#Cc1cncc(-c2nnc(SCc3cc([N+](=O)[O-])cc([N+](=O)[O-])c3)n2C)c1; system = human liver microsomes; measurement = CLint; result = 357 µL/min/mg
SMILES = CCN(CC)C(=O)[C@@H]1C=C2c3cccc4[nH]cc(c34)C[C@H]2N(C)C1; test = refers to: not feeling at ease; system = healthy volunteers; conditions = dose not given, 12 to 24 h; how to read = relative to: placebo, direction not given; measurement = List of Complaints score; result = 0
SMILES = CC[C@H](C)C(=O)O[C@H]1C[C@H](O)C=C2C=C[C@H](C)[C@H](CC[C@@H](O)C[C@@H](O)CC(=O)O)[C@H]21; system = FVB mouse; conditions = oral, dose not given; measurement = AUC(0-t); result = 0.0437 µM·h
SMILES = COC[C@@H](NC(C)=O)C(=O)NCc1ccccc1; system = healthy male volunteers, plasma; conditions = oral, 100 mg single dose; measurement = elimination rate constant (mean); result = 0.058 h⁻¹
SMILES = CC(C)(C)c1cc(C=C(C#N)C#N)cc(C(C)(C)C)c1O; target or system = Plasmodium falciparum; system = Dd2; measurement = IC50; result = 0.93 µM
SMILES = CCCN(CCc1ccsc1)C1CCc2c(O)cccc2C1 (stereo not shown); target or system = BCHE; test = inhibitor; conditions = with Triton; measurement = IC50; result = 10.9 µM
SMILES = O=C(O)c1cn(Cc2cccc(Cl)c2)c2ccccc12; system = F344 rat, male, serum; conditions = oral, 150 mg/kg/day, 2 days, group mean; measurement = gamma-glutamyl transferase; result = 0 U/L
SMILES = CCCCCCCCCCC(=O)O[C@H]1CC[C@H]2[C@@H]3CCC4=CC(=O)CC[C@]4(C)[C@H]3CC[C@]12C; system = human male serum; conditions = 500 ng/mL, NaF 50.0 mg/mL, baseline testosterone 544 ng/dL; measurement = testosterone level; result = 542 ng/dL
SMILES = C=C(C)[C@@H]1CCC(C)=C[C@H]1c1c(O)cc(CCCCC)cc1O; system = human; conditions = 750 mg, trial 17075, added: fluconazole 400 mg; measurement = subjects with Headache; result = 0%
SMILES = Cc1ncc2n1-c1ccc(Cl)cc1C(c1ccccc1F)=NC2; system = human; conditions = oral, dose not given; measurement = subjects with TEAE leading to death; result = 0%
SMILES = CCCCCn1cc(C(=O)Nc2cccc3ccccc23)c2ccccc21; system = Sprague-Dawley rat liver microsomes; conditions = 1 µM; measurement = hepatic clearance; result = 50.3 mL/min/kg
SMILES = COc1ccccc1N1CCN(CCN(C(=O)C2CCCCC2)c2ccccn2)CC1; target or system = Plasmodium falciparum; system = GB4; measurement = IC50; result = 6.31 µM
SMILES = C[C@]12CC[C@H]3[C@@H](CCC4=CC(=O)CC[C@@]43C)[C@@H]1CC[C@@H]2O; system = human liver microsomes; conditions = 1 µM; measurement = hepatic clearance; result = 15.5 mL/min/kg
SMILES = C#Cc1ccc2c(c1)C(c1ccccn1)=NCc1c(-c3cnco3)ncn1-2; test = thermodynamic equilibrium, UV; system = ethanol; conditions = 24 h, 25 °C; measurement = solubility; result = 3820 µg/mL (≈ 10.9 mM)
SMILES = O=c1nc(-c2ccccn2)sc2ccccc12; target or system = BCHE; test = enzyme activity, fluorescence; measurement = IC50; result = 1.26 ± 0.6 µM
SMILES = CC(C)N(CCc1c[nH]c2cccc(O)c12)C(C)C; system = male cynomolgus monkey, plasma; conditions = subcutaneous, 0.5 mg/kg; measurement = half-life; result = 57 min
SMILES = C[C@@H](c1ncncc1F)[C@](O)(Cn1cncn1)c1ccc(F)cc1F; system = human; conditions = oral, 200 mg; measurement = TEAE leading to discontinuation; result = 0%
SMILES = c1ccc2c(c1)Cc1ccccc1-2; system = developing zebrafish, liver; measurement = hepatic clearance; result = 84.7 mL/min/kg
